Measurements gathered from unrelated publications.
A part holds a random share of what one study measured.

Block 1
Target: Interferon regulatory factor 5, full length, phosphomimetic (IRF5, Homo sapiens, UniProt Q13568-2, residues 1-514, K96S/S451D/S453D/S456D/S462D)
Technique: protein-binding microarray
Form: double-stranded DNA, one strand shown
Sample: in vitro
Concentration: 250 nM
Setting: 60-bp whole probe
With: salmon DNA 0.4 mg/ml
Relative to: random background probes
Reading: higher = stronger binding
Constant ends, left off below: GCCTAGCAC … GTCTTGATTCGCTTGACGCTGCTG
Strand	log fluorescence
GACGATTTCCGGTATCGAGACGTGCTA	2.55 z-score
TTAGGTTTCGGGTATCGGTTCGTGCTA	9.42 z-score
TTCGATTTCAGTTCCGATTAGTGCTAG	3.55 z-score
GACGTTTTCGGGTATCGAGACGTGCTA	6.71 z-score
AGGAAAGTGTTTCTCAACCAGTGCTAG	0.406 z-score
TCCTCTTTCTCTGCTACCCTTGTGCTA	1.54 z-score
TCAATTTTCCCCTACTGACTGTGCTAG	0.882 z-score

Block 2
Target: Centromere-binding protein 1, full length, N-terminal tag (CBF1, Saccharomyces cerevisiae, UniProt P17106, residues 1-351)
UniProt P17106, sequence (whole entry, looked up): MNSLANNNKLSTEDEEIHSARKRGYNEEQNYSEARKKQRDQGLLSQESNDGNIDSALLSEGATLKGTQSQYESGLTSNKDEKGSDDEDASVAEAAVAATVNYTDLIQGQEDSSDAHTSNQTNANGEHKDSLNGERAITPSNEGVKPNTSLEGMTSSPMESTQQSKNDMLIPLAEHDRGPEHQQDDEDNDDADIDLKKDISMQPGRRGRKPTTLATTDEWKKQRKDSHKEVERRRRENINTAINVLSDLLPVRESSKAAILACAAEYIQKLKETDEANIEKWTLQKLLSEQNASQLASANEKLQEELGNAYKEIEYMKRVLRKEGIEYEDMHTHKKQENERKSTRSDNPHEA
Technique: protein-binding microarray
Form: double-stranded DNA, one strand shown
Sample: in vitro
Concentration: 0.8 µM
Setting: whole 60-bp probe, no competitor
Reading: higher = stronger binding
Constant ends, left off below: … GTCTTGATTCGCTTGACGCTGCTG
Strand	fluorescence intensity [a.u.]
CTAATACATCACTGATACGTGCGTCTATTGCGCTTC	538
CTAGGAAAGAGGCCCCATGTGGCCTTCAAATAATTC	622
CTAACTTGATCTTCCCACGTTCACATAGCCTCCTTC	539
GAATAGACGATGACTCGCGTGCCAAATAGAATTTAG	569
CTATAGCCACGATAAGGCGTGGTGCTGCTTCATTTC	499
CTACATCATATTGGTCATGATTAATAATAAACCTTC	606
GAAGCCATAACCAAGCGCACGCATACATATATATAG	522
GAACTCATTGTAAAACACGCGGACTGCTTCAAATAG	561

Block 3
Target: PABPC1L2, full length, GST fusion (mouse, UniProt A0ABA7IW68)
Technique: RNAcompete
Form: RNA
Sample: in vitro
Concentration: 20 nM
Setting: 7-mer, probes averaged, single round
Relative to: mean of 7-mers
Reading: higher = stronger binding
Construct (chain): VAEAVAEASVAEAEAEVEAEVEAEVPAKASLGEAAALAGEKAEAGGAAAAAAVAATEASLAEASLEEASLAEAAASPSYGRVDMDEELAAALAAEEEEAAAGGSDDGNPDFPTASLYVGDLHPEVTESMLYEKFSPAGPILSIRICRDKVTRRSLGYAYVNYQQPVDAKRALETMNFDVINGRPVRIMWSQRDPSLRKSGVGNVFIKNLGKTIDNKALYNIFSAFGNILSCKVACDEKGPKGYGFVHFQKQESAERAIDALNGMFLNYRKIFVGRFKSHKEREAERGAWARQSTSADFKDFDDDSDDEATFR
Strand	7-mer Z-score
UGCAGGC	-0.0428
GUUAGAC	-0.249
GUACACA	-0.206
AGCGAGC	0.0334

Single results of other studies
Molecule	target	test	system	setting	scale	quantity	result
PhoQ, residues 284 288 289 292 302 303 SASVAL	PhoP, residues 12 14 15 18 19 NQGLL (Escherichia coli, UniProt P23836)	Sort-seq, item: YFP reporter	E. coli	PhoQ-PhoP variant library, with: 10 µM Mg2+	relative to: high Mg2+ state, higher = stronger signaling	fold induction	3.71

Repeated from above (block 2):
Strand	fluorescence intensity [a.u.]
CTAATACATCACTGATACGTGCGTCTATTGCGCTTC	538
CTAGGAAAGAGGCCCCATGTGGCCTTCAAATAATTC	622
CTAACTTGATCTTCCCACGTTCACATAGCCTCCTTC	539
